Results gathered from unrelated publications.
Protocols differ between the studies behind these lines. Numbers after ± are the reported error.
CSNK1D: Casein kinase I isoform delta (CSNK1D, Homo sapiens, UniProt P48730)
Sequence of UniProt P48730 (whole entry, looked up): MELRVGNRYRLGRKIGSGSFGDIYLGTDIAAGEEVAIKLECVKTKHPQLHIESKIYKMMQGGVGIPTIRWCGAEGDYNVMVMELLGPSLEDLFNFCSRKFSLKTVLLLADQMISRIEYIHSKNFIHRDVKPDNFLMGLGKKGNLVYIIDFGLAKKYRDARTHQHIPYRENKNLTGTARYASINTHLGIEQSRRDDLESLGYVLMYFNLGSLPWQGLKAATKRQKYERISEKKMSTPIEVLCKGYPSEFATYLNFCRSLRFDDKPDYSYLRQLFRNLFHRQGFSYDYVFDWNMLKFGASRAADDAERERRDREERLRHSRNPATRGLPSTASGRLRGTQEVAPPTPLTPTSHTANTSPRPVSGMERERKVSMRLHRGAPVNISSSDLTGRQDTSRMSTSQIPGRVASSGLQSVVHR
TXK: Tyrosine-protein kinase TXK (TXK, Homo sapiens, UniProt P42681)
MAP3K1: Mitogen-activated protein kinase kinase kinase 1 (MAP3K1, Homo sapiens, UniProt Q13233)
Sequence of UniProt Q13233 (whole entry, looked up): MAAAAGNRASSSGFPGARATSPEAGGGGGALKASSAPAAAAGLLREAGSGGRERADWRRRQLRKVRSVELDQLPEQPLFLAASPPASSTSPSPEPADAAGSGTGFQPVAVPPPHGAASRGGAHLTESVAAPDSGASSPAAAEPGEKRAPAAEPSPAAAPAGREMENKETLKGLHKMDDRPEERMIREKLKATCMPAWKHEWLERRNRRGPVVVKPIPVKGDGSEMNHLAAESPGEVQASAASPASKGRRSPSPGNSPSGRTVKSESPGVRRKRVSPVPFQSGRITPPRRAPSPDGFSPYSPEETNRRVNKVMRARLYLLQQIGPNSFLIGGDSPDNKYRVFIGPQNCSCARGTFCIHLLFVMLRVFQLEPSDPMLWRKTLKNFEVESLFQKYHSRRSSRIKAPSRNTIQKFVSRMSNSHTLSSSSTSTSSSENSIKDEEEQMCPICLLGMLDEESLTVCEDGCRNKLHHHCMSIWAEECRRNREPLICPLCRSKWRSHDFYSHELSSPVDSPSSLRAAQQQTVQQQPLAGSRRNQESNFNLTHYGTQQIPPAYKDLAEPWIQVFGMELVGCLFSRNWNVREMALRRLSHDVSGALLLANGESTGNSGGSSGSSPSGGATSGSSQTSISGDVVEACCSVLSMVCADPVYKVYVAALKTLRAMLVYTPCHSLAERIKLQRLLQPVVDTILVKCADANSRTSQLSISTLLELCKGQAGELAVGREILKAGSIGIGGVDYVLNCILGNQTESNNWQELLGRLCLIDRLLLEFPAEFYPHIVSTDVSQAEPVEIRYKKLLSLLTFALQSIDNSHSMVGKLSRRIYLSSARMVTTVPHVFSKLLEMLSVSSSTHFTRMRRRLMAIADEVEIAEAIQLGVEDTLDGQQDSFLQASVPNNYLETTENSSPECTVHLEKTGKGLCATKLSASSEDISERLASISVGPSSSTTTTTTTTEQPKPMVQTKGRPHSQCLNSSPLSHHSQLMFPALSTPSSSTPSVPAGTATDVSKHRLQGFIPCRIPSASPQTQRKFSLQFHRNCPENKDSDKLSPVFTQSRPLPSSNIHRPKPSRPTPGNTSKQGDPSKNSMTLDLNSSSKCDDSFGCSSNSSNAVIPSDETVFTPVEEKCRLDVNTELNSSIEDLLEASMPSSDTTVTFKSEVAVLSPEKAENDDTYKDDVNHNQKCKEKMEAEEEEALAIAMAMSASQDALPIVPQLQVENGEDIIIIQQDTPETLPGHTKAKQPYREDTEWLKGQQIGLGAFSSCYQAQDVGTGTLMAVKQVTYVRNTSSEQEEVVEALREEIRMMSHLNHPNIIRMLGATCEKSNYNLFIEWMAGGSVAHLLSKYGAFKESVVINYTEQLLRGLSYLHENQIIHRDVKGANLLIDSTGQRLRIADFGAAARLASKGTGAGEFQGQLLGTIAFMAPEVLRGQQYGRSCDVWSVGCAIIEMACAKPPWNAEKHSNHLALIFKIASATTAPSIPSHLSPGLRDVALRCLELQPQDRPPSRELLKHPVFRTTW
MAP4K3: Mitogen-activated protein kinase kinase kinase kinase 3 (MAP4K3, Homo sapiens, UniProt Q8IVH8)
Sequence of UniProt Q8IVH8 (whole entry, looked up): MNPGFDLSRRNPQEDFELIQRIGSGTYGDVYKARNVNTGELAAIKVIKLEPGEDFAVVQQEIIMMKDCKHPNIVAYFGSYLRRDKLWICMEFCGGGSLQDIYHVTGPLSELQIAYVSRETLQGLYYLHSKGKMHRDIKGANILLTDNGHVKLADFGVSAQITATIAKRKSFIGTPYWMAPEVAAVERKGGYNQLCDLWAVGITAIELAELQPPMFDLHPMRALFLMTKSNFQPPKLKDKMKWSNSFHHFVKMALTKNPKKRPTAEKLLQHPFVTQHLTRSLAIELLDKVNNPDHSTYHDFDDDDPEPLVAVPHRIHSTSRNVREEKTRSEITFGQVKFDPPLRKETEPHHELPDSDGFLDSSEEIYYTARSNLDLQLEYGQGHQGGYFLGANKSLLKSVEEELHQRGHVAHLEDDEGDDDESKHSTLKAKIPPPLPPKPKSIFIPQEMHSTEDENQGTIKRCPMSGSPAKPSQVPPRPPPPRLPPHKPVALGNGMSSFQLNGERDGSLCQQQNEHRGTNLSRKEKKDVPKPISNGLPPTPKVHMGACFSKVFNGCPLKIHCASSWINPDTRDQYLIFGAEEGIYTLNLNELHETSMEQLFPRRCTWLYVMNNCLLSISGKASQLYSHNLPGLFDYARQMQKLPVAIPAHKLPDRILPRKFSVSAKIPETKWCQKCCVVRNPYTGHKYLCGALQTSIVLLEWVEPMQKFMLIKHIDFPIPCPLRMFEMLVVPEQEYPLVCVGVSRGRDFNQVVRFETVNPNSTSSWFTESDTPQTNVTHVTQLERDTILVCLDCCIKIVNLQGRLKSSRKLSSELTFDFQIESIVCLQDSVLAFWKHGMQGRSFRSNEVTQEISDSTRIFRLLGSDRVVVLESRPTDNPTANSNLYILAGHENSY
MPO: Myeloperoxidase (MPO, Homo sapiens, UniProt P05164)
Sequence of UniProt P05164 (whole entry, looked up): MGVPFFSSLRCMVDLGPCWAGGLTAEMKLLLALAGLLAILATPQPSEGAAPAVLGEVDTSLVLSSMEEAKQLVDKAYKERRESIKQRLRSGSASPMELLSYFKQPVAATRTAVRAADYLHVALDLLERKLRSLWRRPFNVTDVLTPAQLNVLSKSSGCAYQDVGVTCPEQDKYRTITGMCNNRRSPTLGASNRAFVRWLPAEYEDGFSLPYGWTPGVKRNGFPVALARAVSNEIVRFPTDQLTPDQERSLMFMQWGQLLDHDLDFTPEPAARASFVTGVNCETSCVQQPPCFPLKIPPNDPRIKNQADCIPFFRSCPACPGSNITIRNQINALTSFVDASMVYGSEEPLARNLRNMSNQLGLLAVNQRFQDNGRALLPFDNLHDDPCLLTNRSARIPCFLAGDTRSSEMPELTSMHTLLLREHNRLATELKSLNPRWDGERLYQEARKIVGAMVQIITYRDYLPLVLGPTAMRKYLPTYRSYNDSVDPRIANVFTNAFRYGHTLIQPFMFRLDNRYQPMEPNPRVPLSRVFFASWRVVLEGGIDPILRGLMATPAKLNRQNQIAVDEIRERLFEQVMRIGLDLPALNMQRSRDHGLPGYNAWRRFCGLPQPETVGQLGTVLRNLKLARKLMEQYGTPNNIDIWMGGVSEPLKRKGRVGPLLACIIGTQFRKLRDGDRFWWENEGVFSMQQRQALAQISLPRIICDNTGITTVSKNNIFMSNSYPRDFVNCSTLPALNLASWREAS
TAOK3: Serine/threonine-protein kinase TAO3 (TAOK3, Homo sapiens, UniProt Q9H2K8)
Sequence of UniProt Q9H2K8 (whole entry, looked up): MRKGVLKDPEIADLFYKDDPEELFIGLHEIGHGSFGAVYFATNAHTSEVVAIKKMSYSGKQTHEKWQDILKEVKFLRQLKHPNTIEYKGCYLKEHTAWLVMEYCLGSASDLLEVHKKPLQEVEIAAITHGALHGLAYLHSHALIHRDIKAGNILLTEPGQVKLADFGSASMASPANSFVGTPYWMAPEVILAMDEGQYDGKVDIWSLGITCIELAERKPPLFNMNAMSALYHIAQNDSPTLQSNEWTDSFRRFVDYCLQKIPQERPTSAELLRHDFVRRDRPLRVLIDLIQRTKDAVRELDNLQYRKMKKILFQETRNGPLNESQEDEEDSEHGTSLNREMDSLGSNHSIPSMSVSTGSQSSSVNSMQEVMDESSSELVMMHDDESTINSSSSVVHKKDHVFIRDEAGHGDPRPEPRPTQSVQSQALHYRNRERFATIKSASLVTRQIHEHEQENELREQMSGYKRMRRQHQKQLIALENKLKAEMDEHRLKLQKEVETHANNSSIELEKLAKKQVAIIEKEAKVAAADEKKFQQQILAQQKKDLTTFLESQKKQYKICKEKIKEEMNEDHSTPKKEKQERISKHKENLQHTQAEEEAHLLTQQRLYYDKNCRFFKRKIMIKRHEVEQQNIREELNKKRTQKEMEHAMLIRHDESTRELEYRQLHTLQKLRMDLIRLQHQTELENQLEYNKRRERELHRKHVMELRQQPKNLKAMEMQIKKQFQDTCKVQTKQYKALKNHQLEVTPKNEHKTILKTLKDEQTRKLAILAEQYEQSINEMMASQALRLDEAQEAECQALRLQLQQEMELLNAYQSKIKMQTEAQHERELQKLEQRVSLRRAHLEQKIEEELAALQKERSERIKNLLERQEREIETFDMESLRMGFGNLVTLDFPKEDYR
Sequence of UniProt P28074 (whole entry, looked up): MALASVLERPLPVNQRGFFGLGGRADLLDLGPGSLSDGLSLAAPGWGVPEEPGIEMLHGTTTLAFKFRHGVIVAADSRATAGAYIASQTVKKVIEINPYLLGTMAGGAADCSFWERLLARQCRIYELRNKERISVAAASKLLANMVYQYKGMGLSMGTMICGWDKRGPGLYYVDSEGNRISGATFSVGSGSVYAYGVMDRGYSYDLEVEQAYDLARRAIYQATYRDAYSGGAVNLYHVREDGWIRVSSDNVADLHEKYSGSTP
Sequence of UniProt P11309 (whole entry, looked up): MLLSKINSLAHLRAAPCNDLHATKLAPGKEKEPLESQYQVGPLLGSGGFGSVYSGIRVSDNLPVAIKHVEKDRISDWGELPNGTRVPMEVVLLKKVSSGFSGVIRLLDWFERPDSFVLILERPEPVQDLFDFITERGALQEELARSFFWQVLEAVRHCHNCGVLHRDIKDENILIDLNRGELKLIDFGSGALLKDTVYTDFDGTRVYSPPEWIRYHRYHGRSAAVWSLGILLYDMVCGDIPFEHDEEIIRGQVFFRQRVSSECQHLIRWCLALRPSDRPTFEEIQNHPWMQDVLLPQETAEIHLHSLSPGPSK

| Structure (SMILES) | target | assay | test system | conditions | how to read | remaining activity |
| --- | --- | --- | --- | --- | --- | --- |
| Nc1nc(NC2CCCCC2)sc1C(=O)c1ccccc1 | CSNK1D | enzyme activity, inhibitor |  | 10 µM |  | 82% |
| CC#CC(=O)N1CCC[C@H]1c1nc(-c2ccc(C(=O)Nc3ccccn3)cc2)c2c(N)nccn12 | TXK | kinase activity, inhibitor, HotSpot radiometric |  | 100 nM, added: ATP 10 µM |  | 86.8 ± 2% |
| COc1cc(N2CCN(C)CC2)ccc1Nc1nc(N)n(C(=S)NCc2c(Cl)cccc2Cl)n1 | MAP3K1 | enzyme activity |  | 10 µM | reference: control | 0% |
| c1cnc2ccc(Nc3nc(NC4CC4)c4nc[nH]c4n3)cc2c1 | RPS6KB1 (Homo sapiens, UniProt P23443) | kinase activity, inhibitor, SelectScreen kinase profiling |  | 1 µM | reference: control | 74% |
| C=CC(=O)N1CCC([C@@H]2CCNc3c(C(N)=O)c(-c4ccc(Oc5ccccc5)cc4)nn32)CC1 | TXK | kinase activity, inhibitor, HotSpot radiometric |  | 100 nM, added: ATP 10 µM |  | 0.4 ± 0.1% |
| C[C@@H](Oc1ccc(S(C)(=O)=O)cc1C(=O)N1C[C@@H]2C[C@]2(c2cc(C(F)(F)F)on2)C1)C(F)(F)F | SLC6A9 (Homo sapiens, UniProt P48067) | glycine uptake, inhibitor, [3H]glycine uptake |  | 0.0001 µM, log concentration -1, added: [3H]glycine, 3.5 mg/mL methyl-β-cyclodextrin | reference: no inhibitor | 96.7% |
| O.[Fe+2].c1ccc(CN(CCN(Cc2ccccn2)Cc2ccccn2)Cc2ccccn2)cc1 | PSMB5 (Homo sapiens, UniProt P28074) | 20S proteasome activity, inhibitor |  | 10 µM, 165 min, room temperature, aerobic without DTT |  | ~10% |
| CCNC(=O)/C=C/c1cccc(Br)c1 | SLC6A19 (Homo sapiens, UniProt Q695T7) | membrane potential transport, inhibitor, FLIPR membrane potential | CHO-BC cells | 100 µM, unit not given | reference: control | 0.454 |
| COc1ccc(F)cc1C(=O)NCc1ccc(-c2nn([C@@H](C)C(F)(F)F)c(N)c2C(N)=O)cc1 | RET (Homo sapiens, UniProt P07949) | kinase activity, inhibitor, HotSpot radiometric |  | 100 nM, added: ATP 10 µM |  | 90.4 ± 0.6% |
| O=C(NC1CCC1)c1ccc2nc(-c3cccc(NS(=O)(=O)NCCN4CCCCC4)c3)cn2c1 | MAP4K3 | enzyme activity |  | 10 µM |  | 67% |
| Cc1cc(Nc2cc(N3CCN(C)CC3)nc(Sc3ccc(NC(=O)C4CC4)cc3)n2)[nH]n1 | CHEK2 (Homo sapiens, UniProt O96017) | kinase activity, KinaseProfiler |  | 0.03 µM, species human | reference: control | 104% |
| O=C1NC(=O)/C(=C/c2ccc(-c3ccc(F)cc3O)o2)S1 | PIM1 (Homo sapiens, UniProt P11309) | enzyme activity |  | 10 µM |  | 7% |
| CC(C)C[C@H](NC(=O)[C@H](Cc1ccccc1)NC(=O)c1cnccn1)B(O)O | Proteasome component C5/PSMB5 (Homo sapiens, UniProt P20618+P28074) | enzyme activity, inhibitor |  | 1 µM, PA28αβ-activated, Tris buffer, added: Ac-WLA-AMC substrate |  | 1 ± 1% |
| FC(F)(F)Oc1cccc(-c2cnc3ccc(-c4ccncc4)nn23)c1 | Serine/threonine-protein kinase Pink1, mitochondrial (Pink1, Tribolium castaneum, UniProt D6WMX4) |  |  | 1 µM |  | 102% |
| C=CC(=O)N1CCC[C@@H](n2nc(-c3ccc(Oc4ccccc4)cc3)c3c(N)ncnc32)C1 | MAP4K3 |  |  | 0.1 µM |  | 143% |
| CC(C)OCCn1c(=S)[nH]c(=O)c2[nH]ccc21 | MPO | LDL lipid peroxidation, inhibitor, cholesteryl ester hydroperoxide |  | 0.0137 µM |  | 106% |
| COc1cc(/C=C/C(=O)CC(=O)/C=C/c2ccc(O)c(OC)c2)ccc1O | phosphorylase kinase |  |  | 1 µM | reference: DMSO | 10% |
| NC/C(=C\F)COc1cccc(Cn2c(=S)[nH]c(=O)c3[nH]cnc32)c1 | MPO | LDL lipid peroxidation, inhibitor, cholesteryl ester hydroperoxide |  | 0.0021 µM |  | 91% |
| COc1cc(N2CCN(C)CC2)ccc1Nc1nc(N)n(C(=O)NCc2c(Cl)cccc2Cl)n1 | PI4KB (Homo sapiens, UniProt Q9UBF8) | enzyme activity |  | 10 µM | reference: control | 18% |
| COc1cc(-c2cncc3c2CN(C)Cc2cc(N4CCNCC4)ccc2-3)cc(OC)c1OC | PHKG2 (Homo sapiens, UniProt P15735) | kinase activity |  | 1 µM, human enzyme, added: ATP 10 µM | reference: DMSO control | 118% |
| CNc1ncc2c(/C=C/C(=O)N3CCC(OC)CC3)nn(Cc3cccc(C(F)(F)F)c3)c2n1 | MAP3K1 | kinase activity, inhibitor |  | 1 µM | reference: untreated control | 98% |
| CN(C)CC#Cc1ccc2[nH]c3c(c2c1)-c1nc(N)ncc1CCC3 | TAOK3 | kinase activity, inhibitor, radiometric |  | 1 µM, added: ATP at Km |  | 77% |
| C=CC(=O)N1CCC[C@@H](n2nc(-c3ccc(Oc4ccccc4)cc3)c3c(N)ncnc32)C1 | FGFR1 (Homo sapiens, UniProt P11362) | kinase activity, inhibitor, HotSpot radiometric |  | 100 nM, added: ATP 10 µM |  | 75.4 ± 1.2% |
| FC(F)c1nc2ccccc2n1-c1nc(N2CCOCC2)nc(N2CCOCC2)n1 | CSNK1D | enzyme activity |  | 10 µM |  | 76% |
| COc1cc(Nc2ncc3c(n2)-c2ccc(Cl)cc2C(c2c(F)cccc2OC)=NC3)ccc1C(=O)O | EPHA5 | kinase activity |  | 1 µM |  | 26% |
| COc1cc(F)ccc1-c1ncnc(Nc2cccc(C[S@](C)(=N)=O)c2)n1 | TAOK3 | kinase activity |  | 10 µM, added: 10 µM ATP |  | 74% |
| O=C(O)c1ccc(Nc2ncc3c(n2)-c2ccc(Cl)cc2C(c2c(F)cccc2F)=NC3)cc1 | human JAK3(h) | kinase activity |  | 1 µM |  | 100% |
| C[C@H]1[C@H](OC(=O)CCC(=O)O)O[C@@H]2O[C@@]3(C)CC[C@H]4[C@H](C)CC[C@@H]1[C@@]24OO3 | Non-structural polyprotein pORF1, helicase domain (Hepatitis E virus genotype 1, UniProt P33424) | ATPase activity, inhibitor, colorimetric |  | 9.7 µM | reference: untreated | 82.9% |
